# Measured values pooled from the literature.
# Numbered parts are unrelated; each lists some results of a single study. Substitutions count along the parent as printed.

# Study 1
# Target: Prothrombin, mature alpha-thrombin (F2, Homo sapiens, UniProt P00734)
# Method: aptamer microarray, sandwich
# Form: DNA with 2'F-ANA
# Matrix: in vitro
# Concentration: 200 nM
# Notes: whole 15-mer aptamer, many near background
# With: Cy3 exosite-II aptamer, 400 nM
# Reading: higher = stronger binding
# Oligonucleotide: GGTTGGTGTGGTTGG
Modification,mean fluorescence intensity
2'F-ANA at 1 2 4 6 12 14,60.4 a.u.
2'F-ANA at 3 6 7 8 9 11 12,1120 a.u.
2'F-ANA at 1 6 9 10 13 15,55.4 a.u.
2'F-ANA at 2 4 5 6 8 10 11 13 15,48.5 a.u.
2'F-ANA at 7 9 10 11 14,112 a.u.
2'F-ANA at 1 2 6 7 8 9 12 13 15,245 a.u.
2'F-ANA at 2 4 5 8 9 11 12 13 15,80.2 a.u.
2'F-ANA at 1 4 6 8 15,152 a.u.

# Study 2
# Target: inorganic phosphate, free oxyanion
# Method: microfluidic competitive inhibition
# Matrix: in vitro, cell-free expressed
# Concentration: not given
# Notes: derived from inhibition constants, unchanged parent 615000 nM
# Reading: lower = stronger binding
# Parent: PafA, mature enzyme, eGFP fusion (Elizabethkingia meningoseptica, UniProt Q9KJX5); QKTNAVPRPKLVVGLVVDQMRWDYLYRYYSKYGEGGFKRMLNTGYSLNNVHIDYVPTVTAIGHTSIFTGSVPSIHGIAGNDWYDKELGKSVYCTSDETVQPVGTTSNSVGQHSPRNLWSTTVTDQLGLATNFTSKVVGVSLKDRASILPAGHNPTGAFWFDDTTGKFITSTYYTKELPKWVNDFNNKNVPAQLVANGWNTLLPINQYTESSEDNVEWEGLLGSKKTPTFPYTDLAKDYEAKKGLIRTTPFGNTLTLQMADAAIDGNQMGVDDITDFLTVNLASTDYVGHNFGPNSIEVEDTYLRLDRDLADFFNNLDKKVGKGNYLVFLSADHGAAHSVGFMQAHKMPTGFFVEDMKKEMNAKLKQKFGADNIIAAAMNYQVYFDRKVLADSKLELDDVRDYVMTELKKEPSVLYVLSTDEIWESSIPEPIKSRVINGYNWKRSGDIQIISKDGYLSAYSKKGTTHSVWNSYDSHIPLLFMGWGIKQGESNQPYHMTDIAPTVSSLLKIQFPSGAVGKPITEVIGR
Variant,phosphate dissociation constant
G288V,471 µM
T419V,747 µM
L244V,693 µM
Y286G,143 µM
D84V,853 µM
Q100V,682 µM
S460G,407 µM
K346V,642 µM
D300G,363 µM
K242G,460 µM
T68V,363 µM
E354G,502 µM
N372V,629 µM
G69A,657 µM
E86G,537 µM
S95V,1870 µM
Q448V,784 µM
T253G,526 µM
S65V,437 µM
G243A,563 µM
W118V,528 µM
L148G,257 µM
I147V,728 µM
I499G,347 µM
K318V,652 µM

# Study 3
# Target: CCNF, cyclin fold, Cln2 fusion (human)
# Method: yeast growth competition, sequencing
# Matrix: yeast
# Notes: strong parent motif
# Reference: not given
# Reading: higher = stronger binding
# Parent: viral docking peptide; YKVKRRLVFGADD; partner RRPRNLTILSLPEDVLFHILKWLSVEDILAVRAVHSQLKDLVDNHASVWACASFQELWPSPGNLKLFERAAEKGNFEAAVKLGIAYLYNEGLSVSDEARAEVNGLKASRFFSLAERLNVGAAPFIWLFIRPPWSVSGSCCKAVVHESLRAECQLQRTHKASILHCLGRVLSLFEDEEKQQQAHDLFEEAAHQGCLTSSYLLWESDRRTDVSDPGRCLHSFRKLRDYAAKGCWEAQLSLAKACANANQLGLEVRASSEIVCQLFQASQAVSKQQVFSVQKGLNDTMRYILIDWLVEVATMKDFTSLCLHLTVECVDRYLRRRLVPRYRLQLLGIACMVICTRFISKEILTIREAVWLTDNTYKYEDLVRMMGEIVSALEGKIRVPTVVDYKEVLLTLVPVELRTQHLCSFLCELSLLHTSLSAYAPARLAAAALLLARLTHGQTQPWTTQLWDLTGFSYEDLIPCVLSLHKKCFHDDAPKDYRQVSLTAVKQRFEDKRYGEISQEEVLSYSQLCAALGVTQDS
Variant,normalised enrichment score
YKHKRRLVFGADD [V3H],8.11
YKVWRRLVFGADD [K4W],7.95
YKVKRHLVFGADD [R6H],8.43
YKVHRRLVFGADD [K4H],8.63
YKVPRRLVFGADD [K4P],8.38
YKVKRWLVFGADD [R6W],6.08
YKDKRRLVFGADD [V3D],3.19
YKVKRRLVNGADD [F9N],1.15
YKVKRRLVFGAVD [D12V],9.09
YKVKRKLVFGADD [R6K],8.74
YKVKRRLAFGADD [V8A],9.26
YKVKRRLVFGAHD [D12H],8.73
YKVKRRLVFGAYD [D12Y],8.74
YKVKRRLKFGADD [V8K],9.13
YKVKRRLVFGAPD [D12P],8.84
YKVKRRLVFGVDD [A11V],8.52
YKVKRRLFFGADD [V8F],9.98
YKVKRRLVWGADD [F9W],8.62
YKVKRRMVFGADD [L7M],2.07
YKVMRRLVFGADD [K4M],8.78
YKTKRRLVFGADD [V3T],9.07
YKVKRRLVFGAMD [D12M],9.12
YKMKRRLVFGADD [V3M],8.34
YKVKRMLVFGADD [R6M],9.31
YKVKRRLVCGADD [F9C],4.12

# Further values, each from its own experiment
SMILES,target,observed,method,concentration,measurement,result
CN1CCN(c2cnc3c(C4CCN(C(=O)c5ccc(OC(F)(F)F)cc5N)CC4)ncnc3c2)CC1,"Calcium-dependent protein kinase 1 (CDPK1, Plasmodium falciparum, UniProt P62344)",cell-free assay,competition with immobilised ligand,1 µM,remaining binding,100%

# Some of these lines once more (study 1):
Modification,mean fluorescence intensity
2'F-ANA at 1 2 4 6 12 14,60.4 a.u.
2'F-ANA at 3 6 7 8 9 11 12,1120 a.u.
2'F-ANA at 1 6 9 10 13 15,55.4 a.u.
2'F-ANA at 2 4 5 6 8 10 11 13 15,48.5 a.u.
